Results of several laboratories.
A part holds a random share of what one study measured. Changes are numbered by the printed parent chain.

Series 1 — method: protein-binding microarray; form: double-stranded DNA, one strand shown; matrix: in vitro; concentration: 2200 nM top; setting: 60-bp whole probe; with: salmon DNA 0.4 mg/ml; baseline: random background probes; direction: higher = stronger binding; all sequences stand within: GCCTAGCAC … GTCTTGATTCGCTTGACGCTGCTG
Target: Interferon regulatory factor 7, full length, phosphomimetic (IRF7, Homo sapiens, UniProt Q92985, residues 1-503, S471D/S472D/S475D/S476D/S477D/S483D/S484D/S487D)
Residues (chain): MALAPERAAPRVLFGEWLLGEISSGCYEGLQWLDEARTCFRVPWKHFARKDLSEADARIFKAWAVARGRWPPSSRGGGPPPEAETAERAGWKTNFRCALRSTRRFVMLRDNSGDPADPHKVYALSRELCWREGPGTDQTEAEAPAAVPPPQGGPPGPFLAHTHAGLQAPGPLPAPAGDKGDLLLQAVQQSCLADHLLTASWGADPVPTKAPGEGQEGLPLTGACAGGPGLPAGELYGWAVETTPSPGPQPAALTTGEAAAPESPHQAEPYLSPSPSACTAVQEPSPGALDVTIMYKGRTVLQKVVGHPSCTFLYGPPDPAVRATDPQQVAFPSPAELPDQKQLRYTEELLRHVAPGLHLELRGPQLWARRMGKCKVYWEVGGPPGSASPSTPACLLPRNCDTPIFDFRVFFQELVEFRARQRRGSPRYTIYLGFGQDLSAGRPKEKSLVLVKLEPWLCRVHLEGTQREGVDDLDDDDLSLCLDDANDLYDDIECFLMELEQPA
Oligonucleotide | fitted relative affinity
TAATATCTAAGATTCTAGCCGTGCTAG | -0.585 z-score
TTAGCACTGGGTCTCGGTTAGTGCTAG | 0.114 z-score
GACGATATTAGTATCGAGACGTGCTAG | 0.158 z-score
GAAGCTTCCTCTCTGCCACTGTGCTAG | 0.728 z-score
TTAGGTTCCCTTTTCCTGTAGTGCTAG | 2.8 z-score
TGAGGTCTCGGTATCGGTTAGTGCTAG | 0.376 z-score
TTAGGTTTCCTCTTCCTTTAGTGCTAG | 2.57 z-score
TTAGATATCAGACTGGAGTAGTGCTAG | -0.332 z-score
GACGGTTTCGGGACTTGGGACGTGCTA | 3.66 z-score
GTGGAAATCAGTATGTTCCCGTGCTAG | 0.839 z-score
TTAGGACTGGGCTATCGGTTAGTGCTA | -0.817 z-score
TTACGTCTCCTTCTCCTTTAGTGCTAG | 2.58 z-score
GACGGACTGGGTTTCGGCACGTGCTAG | -0.0849 z-score
GACGGTATCATTCTCCTGACGTGCTAG | 0.957 z-score
TTAGACCTCAGACTGGATTAGTGCTAG | -0.346 z-score
TTGGATTTCAGTTCCGATTAGTGCTAG | 1.98 z-score
TAAGGTTTCGGGTATCGGTTAGTGCTA | 5.89 z-score
CTGAGGCTGTGTTTTCACTTTGTGCTA | 3.68 z-score
TACGATTCCAGTTTCGAGACGTGCTAG | 4.28 z-score
TCAACTTTCTATGTCTGACTGTGCTAG | 2.57 z-score
TCAGATCTCAGTCTCGATTAGTGCTAG | 0.704 z-score
CACGATATCAGTCTCGAGACGTGCTAG | 0.77 z-score
GACGAACTGAGTATCGAGCCGTGCTAG | -0.377 z-score
TCAAGTTTTCCTTCATGACTGTGCTAG | 2.09 z-score

Series 2 — method: RNA Bind-n-Seq; form: RNA; matrix: in vitro; concentration: 365 nM; baseline: no-protein control; direction: higher = stronger binding
Target: RNA binding protein fox-1 homolog 2, RRM domain, GST-SBP tag (RBFOX2, Homo sapiens, UniProt O43251-10, residues 100-194)
Setting: natural RNA segment, single round, ends assumed
Target sequence (chain): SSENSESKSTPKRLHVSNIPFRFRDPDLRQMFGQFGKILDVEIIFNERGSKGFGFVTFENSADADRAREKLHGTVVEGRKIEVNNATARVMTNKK
Oligonucleotide | RBNS enrichment (R)
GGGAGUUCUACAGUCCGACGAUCUUGGGAAUAAGCCAAAAACAGGGUGAUCUCAUUAGAUUUUGAAGAUAUAUGACUCCUUUGGGCUACAUUUCAUAUUGAUCAAUUUCUAGGUAUUUUUCACUGGCCCAAAGUGGAAUUCUCGGGUGCCAA | 0.498
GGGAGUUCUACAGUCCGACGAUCCCGAGGCUGCAGCUCAGGGCAACGGCAGGCCAGGUCGUGGGUCUCCAGCCGUGCUUGGCCUCAGGGCUGGCAGCCGGAUCCUGGGGCAACCCAUCUGGUCUCUUGAAUAAUGGAAUUCUCGGGUGCCAA | 1.3
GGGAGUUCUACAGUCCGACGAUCACGGAGACCCUUCUUGUUGAAGGGGCCUGCUGCUAGUAACCUUUGCAAUGUUCUGCUUUUAAUAUGUGUCAAAUGGGAGUCUGGAAACUGUAAUAAAGAUGAUUGUAUCCUGGAAUUCUCGGGUGCCAA | 0.703
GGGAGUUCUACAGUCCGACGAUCAAUAGCAAAUUCCUUUCAGAAGUCUCUAGCUUUAGUGCUAAAAUACUACUGAGAAAGGAACUAGGUAGUUUGGUGAAUGAAAGAAAACAAAAUUUGAAGAUAUUAUGUAGUGGAAUUCUCGGGUGCCAA | 0.77
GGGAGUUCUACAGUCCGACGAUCUAGGCUUCUAUGAAUUCAGCCUGUUUCUAAAAGCUGAAAAUCUCAGUUUAAAAAUCAAAAUGUUAACACAAAGCUAAGAUUCAUCAGAGCCCACCCUAUUCUAAGGAACCUGGAAUUCUCGGGUGCCAA | 0.264
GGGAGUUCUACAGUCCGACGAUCUGUGUCCAAUAGCAAGUUAAGGAACCUAGCGCAUCAAAUUUUGUUUUCUUCAUUCAUUUGGAACCUUAUUUUCGCAAAAAACCUAGCUGGAAUAAUAAUGCCAUAUUGUAUGGAAUUCUCGGGUGCCAA | 1.21
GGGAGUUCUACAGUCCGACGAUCGCUAUUUCAAAUUUGGUUUUGUUACAUUAAGUUGACUAUCAAAUACACAAAAGAUUUUUUUUGCAUAUGUUUCCUUUGUUUAAAACCAGUUUCAUAAUUGGUUAUAUAUAUGGAAUUCUCGGGUGCCAA | 0.934
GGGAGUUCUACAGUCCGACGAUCUUUUCCUUGAUUUCUCAGUAGGUGCUAGAGUCCGUUCACACCCUUCACUGUGCGCGCAGACACUGAGGCACGUGGGCUCUGGAACCCGCAGGGUUUGCAGAGAGGCGGCAUGGAAUUCUCGGGUGCCAA | 0.601
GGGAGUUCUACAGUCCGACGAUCAAUGCUAAGUCUGGCAUGGUAGUCAACACCUAUAAUCUCUGCACUCAGAGGCUGAGGAAGAAAGAUCACUGAGUCACGGCCAGCCUGGGCUACAUAGCCCCGCCCUGUCUUGGAAUUCUCGGGUGCCAA | 0.306
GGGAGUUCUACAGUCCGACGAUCCUUGCAUCCAUGCCCAGCCAAUAUACAACUGUAAAGCAAAUAUAGAAAGUCGGCUGUUGAUACGAUUGUCUGUUAUCGAACACAUUCAGUGAUAAAGCUGGGUUACUGCUUGGAAUUCUCGGGUGCCAA | 1.04
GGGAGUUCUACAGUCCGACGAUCACAUUUCCUGUAACGGAAGUGUUAAUUUUACUGUACUUUUUGGUACCUUUUGGGAAUCUAAUGUAUUGUAAGGUAUUUUACACGUGUCCUGAUUUUGCCACAACCUGGAUUGGAAUUCUCGGGUGCCAA | 0.385
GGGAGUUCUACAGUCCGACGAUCUCCUGCUCUCAAGUGAAAUGAGUUAUAUGAGAUAUAUAUAUAUAUAUUUGGUCUUAACUGGAUUUUAAAGAGUUUGGCGUAUUAGUAGCAUUUAAAGCCAGAUAGGGCACUGGAAUUCUCGGGUGCCAA | 1.13

Series 3 — target: UBE2L3 UBC core domain (UniProt P68036); method: yeast two-hybrid; matrix: yeast; setting: mostly zero background; baseline: not given; direction: higher = stronger interaction
Chain of UniProt P68036 (whole entry, looked up): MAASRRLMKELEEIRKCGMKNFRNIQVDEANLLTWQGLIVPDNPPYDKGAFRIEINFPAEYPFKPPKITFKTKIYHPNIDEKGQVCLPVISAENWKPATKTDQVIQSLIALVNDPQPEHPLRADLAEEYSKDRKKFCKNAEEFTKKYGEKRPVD
B1: ZMIZ2 RING domain (UniProt Q8NF64); chain GTIPGTPGPNGEDGVEQTAIKVSLKCPITFRRIQLPARGHDCRHIQCFDLESYLQLNCERGTWRCPVCNKTALLEGLEVDQYMLGILIYIQNSDYEEITIDPTCSWK
B2: MAP3K1 RING domain (UniProt Q13233); chain NSIKDEEEQMCPICLLGMLDEESLTVCEDGCRNKLHHHCMSIWAEECRRNREPLICPLCRSKWRSHDFYS
B3: MDM4 RING domain (UniProt O15151); chain MEDCQNLLKPCSLCEKRPRDGNIIHGRTGHLVTCFHCARRLKKAGASCPICKKEIQLVIKVF
B4: RNF133 RING domain (UniProt Q8WVZ7); chain DEEINPNGDSCVICFERYKPNDIVRILTCKHFFHKNCIDPWILPHGTCPICKCDILKVLGIQ
B5: SH3RF1 RING domain (UniProt Q7Z6J0); chain DESALLDLLECPVCLERLDASAKVLPCQHTFCKRCLLGIVGSRNELRCPECRTLVGSGVEEL
B6: SYTL4 RING domain (UniProt Q96C24); chain RGSQHYSDRTCARCQESLGRLSPKTNTCRGCNHLVCRDCRIQESNGTWRCKVCAKEIELKKAT
Molecule | lacZ reporter activity
FDGDVDPDLKCALCHKVLEDPLTTPCGHVFCAGCVLPWVVQEGSCPARCRGRLSAKELN (PDZRN3 RING domain (UniProt Q9UPQ7)) | 0
YQNEVDDDLVCHICLQPLLQPLDTPCGHTFCYKCLRNFLQEKDFCPLDRKRLHFKLCKK (LNX2 RING domain (UniProt Q8N448)) | 0
B1 (ZMIZ2 RING domain) | 0
B2 (MAP3K1 RING domain) | 0
NLSELTPYILCSICKGYLIDATTITECLHTFCKSCIVRHFYYSNRCPKCNIVVHQTQPLY (PCGF6 RING domain (UniProt Q9BYE7)) | 0
B3 (MDM4 RING domain) | 0
B4 (RNF133 RING domain) | 0
B5 (SH3RF1 RING domain) | 0
B6 (SYTL4 RING domain) | 0

Series 4 — target: CCNA2, cyclin fold, Cln2 fusion (human); method: yeast growth competition, sequencing; matrix: yeast; setting: strong parent motif; baseline: not given; direction: higher = stronger binding
Starting sequence: CDC6 docking peptide (human); TLKGRRLVFDNQL; partner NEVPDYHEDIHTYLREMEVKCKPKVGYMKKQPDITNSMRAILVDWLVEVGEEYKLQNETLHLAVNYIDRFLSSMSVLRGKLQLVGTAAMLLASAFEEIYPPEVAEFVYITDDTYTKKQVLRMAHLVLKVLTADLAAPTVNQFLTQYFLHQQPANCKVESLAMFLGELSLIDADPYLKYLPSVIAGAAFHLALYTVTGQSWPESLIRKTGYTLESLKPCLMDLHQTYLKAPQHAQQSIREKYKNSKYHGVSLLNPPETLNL
Substitution | normalised enrichment score
TLKGRRLTFDNQL [V8T] | 2.97
TLVGRRLVFDNQL [K3V] | 3.74
TLKGRRLVSDNQL [F9S] | 1.15
TLKVRRLVFDNQL [G4V] | 1.78
TLKHRRLVFDNQL [G4H] | 1.82
TLKGRRLRFDNQL [V8R] | 2.14
TCKGRRLVFDNQL [L2C] | 2.61
TLKGRRLVFDCQL [N11C] | 2.83
TLKGRRLVFENQL [D10E] | 1.81

Series 5 — method: DHFR PCA, dose-response; matrix: yeast; with: (+)-ABA, dose series; direction: lower = more sensitive
Target: ABI1, truncated, D143A, DHFR fusion (Arabidopsis thaliana, UniProt P49597)
Setting: Hill fit, not affinity, not high confidence
Starting sequence: PYL1, truncated, DHFR fusion (Arabidopsis thaliana, UniProt Q8VZS8); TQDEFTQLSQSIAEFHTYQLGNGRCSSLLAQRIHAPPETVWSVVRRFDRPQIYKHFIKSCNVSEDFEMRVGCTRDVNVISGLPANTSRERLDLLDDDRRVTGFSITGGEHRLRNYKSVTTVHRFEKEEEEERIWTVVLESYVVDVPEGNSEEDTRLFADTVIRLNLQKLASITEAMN
Substitution | ABA EC50
K116P | 0.218 µM
P50V | 143 µM
F157N | 8.41 µM
N165E | 3.46 µM
Y141V | 67.7 µM
D153I | 1670 µM
A84D | 707 µM
T135H | 0.951 µM
I33D | 23.3 µM
D95P | 39.8 µM
P50Q | 480 µM
L28P | 8.4 µM
V76P | 808 µM
N149G | 93.1 µM
S80C | 197 µM

Series 6 — method: protein binding microarray; form: double-stranded DNA, one strand shown; matrix: in vitro; concentration: not given; baseline: not given; direction: higher = stronger binding
Target: Histone acetyltransferase KAT6A, winged helix 2, GST fusion (KAT6A, Homo sapiens, UniProt Q92794, residues 85-181)
Setting: 8-mer, flanks averaged, mean of 2 arrays, mostly near background
Residues (chain): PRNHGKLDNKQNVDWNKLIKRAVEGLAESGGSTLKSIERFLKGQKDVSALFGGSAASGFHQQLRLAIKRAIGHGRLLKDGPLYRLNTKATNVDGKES
Oligonucleotide | E-score
AAAGGTGG | -0.0991
GCTACCAC | 0.00156
CGATCTGC | 0.122
CGAGCCCG | 0.0258
AGGTAAGC | -0.0857
ATTATGTG | -0.0713
CGAAAGCC | -0.0179
CACCTCTG | -0.0747
GATGCTTA | -0.16
CGTGGGGA | 0.155
ACGGAGTG | 0.155
AACGCTTC | -0.0652
TCGGCAAA | 0.0186
GTGATCTA | 0.134
TCGAGCGA | 0.00161
CATCGTCC | 0.0196
GCGTTGTA | -0.141
ACTCCCAG | -0.122
CCTAGATC | -0.15
CGCCAGAG | 0.15
CGCGATAC | 0.0197
GACTAACC | -0.0271
GACCAATA | -0.265
GAGCAAAC | 0.101
ACCCTAGC | 0.0459

Some of these lines once more (series 4):
Substitution | normalised enrichment score
TLKGRRLVSDNQL [F9S] | 1.15
TLKGRRLVFENQL [D10E] | 1.81
TLKGRRLTFDNQL [V8T] | 2.97
TLKHRRLVFDNQL [G4H] | 1.82
TLKGRRLRFDNQL [V8R] | 2.14
TLKVRRLVFDNQL [G4V] | 1.78
TCKGRRLVFDNQL [L2C] | 2.61
TLVGRRLVFDNQL [K3V] | 3.74
TLKGRRLVFDCQL [N11C] | 2.83
